Results of several laboratories.
A part holds a random share of what one study measured. Positions count from the first letter of the parent shown.

Study 1 — target: CCNB2, cyclin fold, Cln2 fusion (human); method: yeast growth competition, sequencing; matrix: yeast; setting: weak parent motif; reference: not given; direction: higher = stronger binding
Starting sequence: CDAN1 docking peptide (human); RGARSQLFPPTEA
For `RGARSALFPPTEA [Q6A]`, “normalised enrichment score” read 0.0665.
Under “normalised enrichment score”, `RAARSQLFPPTEA [G2A]` is recorded as 0.154.
Under “normalised enrichment score”, `RGARSQLFPATEA [P10A]` is recorded as 0.221.
Under “normalised enrichment score”, `RGARSQLFPPTAA [E12A]` is recorded as 0.195.
`RGARSQLFAPTEA [P9A]`: “normalised enrichment score” 0.563.
`AGARSQLFPPTEA [R1A]`: “normalised enrichment score” 0.176.

Study 2 — method: DHFR PCA, deep sequencing; matrix: yeast; together with: (+)-ABA 0.11 µM; reference: wild-type fitted maximum; direction: higher = stronger binding
Target: ABI1, truncated, D143A, DHFR fusion (Arabidopsis thaliana)
Setting: methotrexate growth selection, single substitutions
Starting sequence: PYL1, truncated, DHFR fusion (Arabidopsis thaliana); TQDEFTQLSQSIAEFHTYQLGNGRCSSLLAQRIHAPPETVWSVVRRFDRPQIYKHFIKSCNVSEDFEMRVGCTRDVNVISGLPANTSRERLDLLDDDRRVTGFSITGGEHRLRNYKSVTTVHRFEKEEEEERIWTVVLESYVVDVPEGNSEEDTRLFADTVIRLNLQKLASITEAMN
`V118Y`: “relative binding score” -0.786%.
Under “relative binding score”, `I12Y` is recorded as 3.54%.
`T1K`: “relative binding score” 31%.
Under “relative binding score”, `D65P` is recorded as 54.2%.
`S27M` — result for “relative binding score”: -1.19%.
For `N165E`, “relative binding score” read 3.1%.
Under “relative binding score”, `S87H` is recorded as 50%.
`D65W`: “relative binding score” 3.49%.
For `F5W`, “relative binding score” read 36.7%.
`F47N`: “relative binding score” 0.291%.
`S63E`: “relative binding score” 28%.
For `N61Q`, “relative binding score” read 46%.
`D75M` — result for “relative binding score”: 35.5%.
For `V78A`, “relative binding score” read 10%.

Study 3 — method: RNA Bind-n-Seq; form: RNA; matrix: in vitro; concentration: not given; setting: RNA with constant flanks, ends assumed; reference: input RNA pool; direction: higher = stronger binding
Target: RING finger protein unkempt homolog, zinc fingers 1-6, GST-SBP tag (UNK, Homo sapiens, UniProt Q9C0B0, residues 30-357)
All sequences stand within: GGGAGUUCUACAGUCCGACGAUC … CAACAGAGGAUUGAGCAUCA
Target sequence (chain): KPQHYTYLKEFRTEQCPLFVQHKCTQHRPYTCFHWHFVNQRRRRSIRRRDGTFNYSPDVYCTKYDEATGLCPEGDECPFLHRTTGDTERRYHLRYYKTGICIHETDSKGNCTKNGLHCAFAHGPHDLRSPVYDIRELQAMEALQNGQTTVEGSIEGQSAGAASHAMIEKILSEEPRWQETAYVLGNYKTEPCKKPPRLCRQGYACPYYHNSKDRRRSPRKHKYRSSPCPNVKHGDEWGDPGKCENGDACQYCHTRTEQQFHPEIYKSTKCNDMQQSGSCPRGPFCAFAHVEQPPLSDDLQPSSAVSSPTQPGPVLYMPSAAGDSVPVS
`GGGCUGUACAGGUCACCCUCUCCCACGGUGCCCGCCGACCCUGGGGUGUCUGUCUCUCUGCGGGCCGGAGGGCGCCAUGGGCGCGCCGCCGCCCGCUCCCCGCAGCCGCCUUUGCGGAGC` gave a bound/input enrichment of 0.197 ratio.
For `CUGAGCACAGGGGAGUUCUUGAAACUCCCUUUUGAGCGUCUUGCCUUCGUGCUUUCCAGUAACCGCCUUAAGCACUGUACUGAACUUGAGCUCUUUAAGGCUACCUGUCGUUGGCUUCGC`, the bound/input enrichment was 0.063 ratio.
The bound/input enrichment of `UAUAUCACCAAUGUCCUACAAAAUCCUGACUUGGCUCUGAGAAUGGCUGUGCGGAACAACUCCGCUGGUGCUGAAGAACUCUUUGCCCGGAAAUUUAAUGCUCUCUUCGCCCAGGGAAAC` is reported as 0.257 ratio.
For `CCUAAUGGUGCAACCUUGCUGGUUGGUGGUUUUGGGCUGUGUGGUAUUCCAGAGAAUCUUACCGGAGCUUUACUGAAGACUGGAGUAAAAGAUCUAACUGCAGUCAGCAACAAUGCAGGG`, the bound/input enrichment was 0.0715 ratio.
`AACGGAGAACUGGAAGAUAAGCCUCCAGCACCUCCUGUGCGAAUGAGCAGCACCAUCUUCCGCACUGGAGGCAAAGACCCUUUGUCAGCCAAUCACAGUUUGAAACCUUUGCCCUCUGUU` gave a bound/input enrichment of 0.116 ratio.
`AAUCACUAAACUGUGCCUAAAGAACAUAACUGCCAUAUUAAUGUUUUGGUUUAUAUCCUCUACCGUAAUAGAAAAACAUUUAAUACUUGUAAUGCUGAUGUGUUAAUUUGAUACCAGUUG` has a bound/input enrichment of 0.374 ratio.
`UUUUUAAAAAAAUAAAAUAAAACAUAAAUAUUACUCUUCCAUAUUCCUUCUGCCUAUAUUCCGUAAUUAAUUUAUUUUAUGAUAAAGUUCUAAUGAAAUGUAAAUUGUUUCAGCAAAAUU` has a bound/input enrichment of 2.21 ratio.
For `AGAAGUUGCAAGCAGUGUUCCAAAAGUUGUAGGCUCUGCUGUUGGUAGUGGGUCCAUCACCCGUAACAUUGUGGCUUCUAGCAGUUUGCCUCCAGCUACUAUUGCUCCUCCAAAACCAGC`, the bound/input enrichment was 0.149 ratio.

Other studies, line by line
`PhoQ, residues 284 288 289 292 302 303 SVTLVV` gave a fold induction of 3.42 (PhoP, residues 12 14 15 18 19 AWHSL (Escherichia coli, UniProt P23836); Sort-seq, item: YFP reporter; E. coli; PhoQ-PhoP variant library, together with: 10 µM Mg2+; reference: high Mg2+ state, higher = stronger signaling).

A few entries again (study 3):
For `CCUAAUGGUGCAACCUUGCUGGUUGGUGGUUUUGGGCUGUGUGGUAUUCCAGAGAAUCUUACCGGAGCUUUACUGAAGACUGGAGUAAAAGAUCUAACUGCAGUCAGCAACAAUGCAGGG`, the bound/input enrichment was 0.0715 ratio.
`AACGGAGAACUGGAAGAUAAGCCUCCAGCACCUCCUGUGCGAAUGAGCAGCACCAUCUUCCGCACUGGAGGCAAAGACCCUUUGUCAGCCAAUCACAGUUUGAAACCUUUGCCCUCUGUU` gave a bound/input enrichment of 0.116 ratio.
`GGGCUGUACAGGUCACCCUCUCCCACGGUGCCCGCCGACCCUGGGGUGUCUGUCUCUCUGCGGGCCGGAGGGCGCCAUGGGCGCGCCGCCGCCCGCUCCCCGCAGCCGCCUUUGCGGAGC` gave a bound/input enrichment of 0.197 ratio.
